# Measured values from different studies.
# ± gives the spread as reported.
# Sequence of UniProt Q92945 (whole entry, looked up): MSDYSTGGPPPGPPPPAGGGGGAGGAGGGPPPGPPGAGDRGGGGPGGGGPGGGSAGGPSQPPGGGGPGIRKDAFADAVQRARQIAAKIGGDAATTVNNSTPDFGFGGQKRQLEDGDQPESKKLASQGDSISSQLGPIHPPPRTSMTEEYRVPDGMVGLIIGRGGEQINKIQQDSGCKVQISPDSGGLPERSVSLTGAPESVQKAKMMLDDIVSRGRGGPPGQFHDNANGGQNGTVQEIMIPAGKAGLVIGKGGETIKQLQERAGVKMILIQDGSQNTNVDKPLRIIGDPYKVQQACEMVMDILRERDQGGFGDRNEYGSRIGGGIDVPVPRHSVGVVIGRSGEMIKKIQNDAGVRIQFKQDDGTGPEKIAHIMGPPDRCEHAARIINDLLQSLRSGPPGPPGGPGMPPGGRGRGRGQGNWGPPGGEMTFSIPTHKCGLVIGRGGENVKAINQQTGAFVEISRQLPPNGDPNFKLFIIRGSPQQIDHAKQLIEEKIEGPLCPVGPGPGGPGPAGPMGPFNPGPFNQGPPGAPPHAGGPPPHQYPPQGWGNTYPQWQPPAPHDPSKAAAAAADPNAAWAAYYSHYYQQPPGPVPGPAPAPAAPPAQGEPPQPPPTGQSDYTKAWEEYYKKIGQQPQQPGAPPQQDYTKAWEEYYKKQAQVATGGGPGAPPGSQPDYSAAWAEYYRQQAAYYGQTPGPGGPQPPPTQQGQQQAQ
# Sequence of UniProt P47901 (whole entry, looked up): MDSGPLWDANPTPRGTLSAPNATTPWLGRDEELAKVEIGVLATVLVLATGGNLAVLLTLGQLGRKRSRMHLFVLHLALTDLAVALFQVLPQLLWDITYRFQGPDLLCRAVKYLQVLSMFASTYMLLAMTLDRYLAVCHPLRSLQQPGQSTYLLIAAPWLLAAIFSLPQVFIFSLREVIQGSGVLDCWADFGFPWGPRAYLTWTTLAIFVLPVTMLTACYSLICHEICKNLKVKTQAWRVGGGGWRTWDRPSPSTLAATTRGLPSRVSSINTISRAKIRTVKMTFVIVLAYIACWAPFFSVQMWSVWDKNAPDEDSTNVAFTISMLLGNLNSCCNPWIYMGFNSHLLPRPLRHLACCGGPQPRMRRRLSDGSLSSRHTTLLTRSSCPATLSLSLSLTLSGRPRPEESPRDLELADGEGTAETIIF
SMILES,tested on,test,test system,setting,scale,quantity,result
COc1ccc2cc1Oc1ccc(cc1)C[C@H]1c3cc(c(OC)cc3CCN1C)Oc1c(OC)c(OC)cc3c1[C@H](C2)N(C)CC3,293T-ACE2,,,40 (unit not given),,CC50,> 2.5 µM
CO[C@H]1C[C@@H]2CC[C@@H](C)[C@@](O)(O2)C(=O)C(=O)N2CCCC[C@H]2C(=O)O[C@H]([C@H](C)C[C@@H]2CC[C@@H](OC(=O)NCCOCCOCCOCCOCCOCCOCCOCCOCCC(=O)N3CCc4cc(Cn5nc(-c6ccc7oc(N)nc7c6)c6c(N)ncnc65)ccc4C3)[C@H](OC)C2)C[C@@H](O)[C@H](C)/C=C(\C)[C@@H](O)[C@@H](OC)C(=O)[C@H](C)C[C@H](C)/C=C/C=C/C=C/1C,,dose-escalation trial,patients with advanced solid tumours,"intravenous, 1.6 mg/3 mg weekly, grade ≥3",,decreased appetite TEAE incidence,0%
C1=C(c2ccc(CN3CCCCC3)cc2)N2CCN=C2c2ccccc21,293T-ACE2,,,40 (unit not given),,CC50,> 2.5 µM
COC(=O)[C@@H]1[C@@H](c2ccccc2)[C@]2(c3ccc(OC)cc3)Oc3cc(OC)cc(OC)c3[C@@]23N=C(C)N[C@@]13O,transfected HepG2,MTT,,48 h,,CC50,0.0197 µM
C=C(C)[C@@H]1CC[C@]2(C(=O)Nc3ccccc3)CC[C@]3(C)[C@H](CC[C@@H]4[C@@]5(C)CC[C@H](O[C@@H]6O[C@H](CO)[C@@H](O[C@@H]7O[C@@H](C)[C@H](O)[C@@H](O)[C@H]7O)[C@H](O)[C@H]6O[C@@H]6O[C@@H](C)[C@H](O)[C@@H](O)[C@H]6O)C(C)(C)[C@@H]5CC[C@]43C)[C@@H]12,293T-ACE2,"cytotoxicity, MTT",,"48 h, 50% serum",,CC50,> 200 µM
c1csc(-c2ccc(-c3cccs3)s2)c1,PH5CH8 (oleate-loaded),,,"72 h, with: sodium oleate 1 mM",,CC50,> 15 µM
COc1cc(Nc2ncc(F)c(Nc3ccc4c(n3)NC(=O)C(C)(C)O4)n2)cc(OC)c1OC,"AVPR1B (Homo sapiens, UniProt P47901)",,,,,IC50,> 10 µM
COc1cc2c(Oc3ccc4[nH]c(C)cc4c3F)ccnc2cc1OCC1(N)CC1,,,paediatric recurrent refractory sarcoma,8 mg/kg,,grade 3 sinus bradycardia,0%
C[C@H]1CN(c2n[nH]c3nc(N[C@H]4CC[C@H](NS(=O)(=O)CCC(F)(F)F)CC4)ncc23)CCO1,"KHSRP (Homo sapiens, UniProt Q92945)","inhibitor, Kinobeads competition profiling",,0.16 µM,reference: vehicle,relative abundance,1.15
CC(C)C[C@H](NC(=O)OCc1ccccc1)C(=O)N[C@H](C=O)C[C@@H]1CCCNC1=O,human PBM cells,cytotoxicity,,,,CC50,> 100 µM
COc1ccc(-c2cc(=O)c3c(OC)cc(OC)cc3o2)cc1,A549-hACE2,cytotoxicity,,96 h,,CC50,50.8 ± 4.83 µM
C[C@@H]1CS/C(=N\NC(=O)C(=O)[C@H](NC(=O)C2CCCCCC2)C2CCOCC2)N1C,293T-ACE2,,,40 (unit not given),,CC50,> 2.5 µM
CCC(CC)COC(=O)[C@H](C)N[P@](=O)(OC[C@H]1O[C@@](C#N)(c2ccc3c(N)ncnn23)[C@H](O)[C@@H]1O)Oc1ccccc1,human PBM cells,,,,,CC50,4.4 ± 2.2 µM
C[C@@H](O)[C@@H](CO)NC(=O)[C@@H](CCCNC(=N)N)NC(=O)[C@@H]1CCCN1C(=O)[C@@H]1CSSC[C@H](NC(=O)[C@H](Cc2ccccc2)NC(=O)CN2CCN(CC(=O)O)CCN(CC(=O)O)CCN(CC(=O)O)CC2)C(=O)N[C@@H](Cc2ccc(O)cc2)C(=O)N[C@@H](Cc2ccccc2)C(=O)N[C@@H](CCC(N)=O)C(=O)N[C@@H](CC(N)=O)C(=O)N1 [gallium-68 labelled],,,"Wistar rat, healthy, sublingual gland","intravenous, 8 MBq, 60 min, mean",,tissue uptake,0.14 %ID/g
COc1cc2c3c(c1OC)-c1ccccc1C[C@H]3N(C)CC2,A549-hACE2,cytotoxicity,,96 h,,CC50,86.7 ± 13.4 µM
CN1CC[C@@H](c2c(O)cc(O)c3c(=O)cc(-c4ccc(C(F)(F)F)cc4Cl)oc23)[C@@H]1CO,,measured: Syncope,relapsed AML,"oral, 200 mg, grade 3-4, intermittent dosing",,patients with adverse event,20%
CC(C)(C)[C@H](NC(=O)C(F)(F)F)C(=O)N1C[C@H]2[C@@H]([C@H]1C(=O)N[C@H](C#N)C[C@@H]1CCNC1=O)C2(C)C,human PBM cells,,,,,CC50,> 100 µM
CC(C)C[C@H](NC(=O)OCc1ccccc1)C(=O)N[C@@H](CC(C)C)C(=O)N[C@@H](CC1CCNC1=O)C(=O)C(=O)NC1CC1 (stereo partly shown),MRC5,,,5 (unit not given),,CC50,110 ± 9.8 µM
CCC(CC)COC(=O)[C@H](C)N[P@](=O)(OC[C@H]1O[C@@](C#N)(c2ccc3c(N)ncnn23)[C@H](O)[C@@H]1O)Oc1ccccc1,293T-ACE2,,,40 (unit not given),,CC50,0.72 µM

# Excerpt of the above:
SMILES,tested on,test,test system,setting,scale,quantity,result
COc1cc(Nc2ncc(F)c(Nc3ccc4c(n3)NC(=O)C(C)(C)O4)n2)cc(OC)c1OC,"AVPR1B (Homo sapiens, UniProt P47901)",,,,,IC50,> 10 µM
